# Experimental data collected from several papers.
# Protocols differ between the studies behind these lines. “And” joins repeats or separate records; there may be more than shown. ± gives the spread as reported.
# SCRIB PDZ3 domain: Protein scribble homolog, PDZ3 domain (SCRIB, Homo sapiens, UniProt Q14160)
# Sequence of UniProt Q14160 (whole entry, looked up): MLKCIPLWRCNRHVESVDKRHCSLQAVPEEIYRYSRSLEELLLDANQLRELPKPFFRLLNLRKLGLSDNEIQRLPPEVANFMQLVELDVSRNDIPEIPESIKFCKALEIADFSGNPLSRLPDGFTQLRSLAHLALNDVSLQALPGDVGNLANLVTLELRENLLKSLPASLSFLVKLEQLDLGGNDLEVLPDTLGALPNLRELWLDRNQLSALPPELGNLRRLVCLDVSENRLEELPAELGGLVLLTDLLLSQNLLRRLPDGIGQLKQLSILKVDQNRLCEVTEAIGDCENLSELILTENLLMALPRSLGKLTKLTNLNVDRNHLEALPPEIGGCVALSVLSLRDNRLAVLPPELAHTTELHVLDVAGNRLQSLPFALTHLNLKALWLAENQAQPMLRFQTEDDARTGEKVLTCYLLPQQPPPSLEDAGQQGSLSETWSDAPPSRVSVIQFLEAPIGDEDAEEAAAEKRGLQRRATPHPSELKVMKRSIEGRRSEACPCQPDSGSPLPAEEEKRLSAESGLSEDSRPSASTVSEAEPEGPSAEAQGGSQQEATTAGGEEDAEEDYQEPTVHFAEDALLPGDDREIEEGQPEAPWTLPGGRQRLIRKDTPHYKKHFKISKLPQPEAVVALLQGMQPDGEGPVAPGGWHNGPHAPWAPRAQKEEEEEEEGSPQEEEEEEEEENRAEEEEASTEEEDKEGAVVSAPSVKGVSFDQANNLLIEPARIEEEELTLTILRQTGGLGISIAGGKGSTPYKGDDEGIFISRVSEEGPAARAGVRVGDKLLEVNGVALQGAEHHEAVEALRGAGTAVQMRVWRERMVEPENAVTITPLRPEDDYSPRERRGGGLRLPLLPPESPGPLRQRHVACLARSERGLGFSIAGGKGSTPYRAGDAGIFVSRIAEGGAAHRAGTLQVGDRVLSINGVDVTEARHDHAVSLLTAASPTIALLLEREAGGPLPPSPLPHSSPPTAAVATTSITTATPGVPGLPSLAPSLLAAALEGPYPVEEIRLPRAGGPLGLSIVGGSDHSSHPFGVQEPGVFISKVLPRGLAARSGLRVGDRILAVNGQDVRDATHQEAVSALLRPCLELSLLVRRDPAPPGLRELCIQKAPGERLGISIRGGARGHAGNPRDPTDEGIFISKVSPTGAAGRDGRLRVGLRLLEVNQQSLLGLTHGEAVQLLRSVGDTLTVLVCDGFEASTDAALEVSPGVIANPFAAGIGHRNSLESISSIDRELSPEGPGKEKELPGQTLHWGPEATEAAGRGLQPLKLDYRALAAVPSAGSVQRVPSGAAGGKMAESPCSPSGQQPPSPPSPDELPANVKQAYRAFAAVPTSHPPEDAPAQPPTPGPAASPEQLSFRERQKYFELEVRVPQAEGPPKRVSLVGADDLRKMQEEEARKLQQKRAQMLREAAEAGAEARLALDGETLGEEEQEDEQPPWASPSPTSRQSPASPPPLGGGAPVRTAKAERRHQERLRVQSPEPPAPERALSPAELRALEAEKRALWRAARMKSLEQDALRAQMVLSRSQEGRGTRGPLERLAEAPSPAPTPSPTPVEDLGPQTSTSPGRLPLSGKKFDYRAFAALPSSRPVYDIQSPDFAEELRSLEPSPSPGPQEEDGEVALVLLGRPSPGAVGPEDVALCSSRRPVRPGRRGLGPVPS
# Sequence of UniProt P00772 (whole entry, looked up): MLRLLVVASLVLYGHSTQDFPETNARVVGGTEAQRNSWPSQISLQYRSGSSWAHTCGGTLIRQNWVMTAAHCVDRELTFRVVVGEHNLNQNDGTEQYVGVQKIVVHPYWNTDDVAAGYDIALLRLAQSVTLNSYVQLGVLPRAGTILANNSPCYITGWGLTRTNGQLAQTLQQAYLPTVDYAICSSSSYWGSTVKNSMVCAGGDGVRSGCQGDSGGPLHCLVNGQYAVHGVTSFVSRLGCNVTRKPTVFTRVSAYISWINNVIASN
SMILES,tested on,test,system,conditions,how to read,quantity,result
C#CC[C@H](NC(=O)[C@H](Cc1ccccc1)NC(=O)CCNC(=S)Nc1ccc2c(c1)C(=O)OC21c2ccc(O)cc2Oc2cc(O)ccc21)C(=O)N[C@@H](C)C(=O)N[C@@H](CC(C)C)C(=O)N[C@@H](CC(=O)O)C(=O)N[C@@H](Cc1c[nH]c2ccccc12)C(=O)N[C@@H](CO)C(=O)N[C@@H](Cc1c[nH]c2ccccc12)C(=O)N[C@@H](CC(C)C)C(=O)N[C@@H](CCC(N)=O)C(=O)N[C@H](C(=O)N[C@@H](CCC(=O)O)C(N)=O)[C@@H](C)O,,dynamic light scattering,PBS/DMSO,5000 nM,,hydrodynamic diameter,1250 ± 35 nm
[Cl][212Pb][Cl],,refers to: 212Pb,"athymic mouse, C4-2 prostate xenograft, femur","intravenous, 2 h, below quantification limit",,tissue uptake,7.66 ± 0.27 %ID/g
CN(C)CC/C=C1/c2ccccc2Sc2ccc(Cl)cc21,African green monkey cells,,,5 days,,CC50,13.8 µM
N#C[C@@]1(n2ccc(N)nc2=O)O[C@H](CO)[C@@H](O)[C@H]1O,,,"CD-1 mouse, lung","intravenous, 15 mg/kg, 7 h",,concentration,223 ng/g and 412 ng/g and 327 ng/g
O=c1cc(-c2ccc(O)c(O)c2)oc2cc(O)cc(O)c12,,,"male Sprague-Dawley rats, lean, urine","oral, 100 mg/kg of neohesperidin, 48 h",,cumulative urinary excretion,480 ± 67.5 ng
CC[C@H](C)[C@H](NC(=O)[C@H](Cc1ccccc1)NC(=O)[C@H](CCC(=O)O)NC(=O)[C@H](CCCNC(=N)N)NC(=O)[C@H](C)NC(=O)[C@H](C)NC(=O)[C@H](CCC(N)=O)NC(=O)[C@H](CCC(=O)O)NC(=O)[C@H](CCC(=O)O)NC(=O)[C@H](CC(C)C)NC(=O)[C@H](Cc1ccc(O)cc1)NC(=O)[C@H](CO)NC(=O)[C@H](CO)NC(=O)[C@@H](NC(=O)[C@H](CC(=O)O)NC(=O)[C@H](CO)NC(=O)[C@@H](NC(=O)[C@H](Cc1ccccc1)NC(=O)[C@@H](NC(=O)CNC(=O)[C@H](CCC(=O)O)NC(=O)[C@H](C)NC(=O)CCc1c[nH]cn1)[C@@H](C)O)[C@@H](C)O)C(C)C)C(=O)N[C@@H](C)C(=O)N[C@@H](Cc1c[nH]c2ccccc12)C(=O)N[C@@H](CC(C)C)C(=O)N[C@H](C(=O)N[C@@H](CCCNC(=N)N)C(=O)NCC(=O)N[C@@H](CCCNC(=N)N)C(=O)N[C@@H](CCCCNC(=O)COCCOCCNC(=O)COCCOCCNC(=O)CC[C@H](NC(=O)CCCCCCCCCCCCCCCCC(=O)O)C(=O)O)C(=O)NCC(=O)NCC(=O)N[C@@H](CO)C(=O)N[C@@H](CCCCNc1c(NCCCCCN(O)C(=O)CCC(=O)NCCCCCN(O)C(=O)CCC(=O)NCCCCCN(O)C(C)=O)c(=O)c1=O)C(=O)O)C(C)C,,,"rat, plasma","intravenous, 20 nmol/kg",,dose-normalised AUC,143 kg·h/L
O=C(Nc1ccccc1)C1CCN(C(=O)Oc2cccnc2)CC1,,refers to: Illusion,healthy female human,"concentration not given, all doses pooled",,adverse event incidence,13%
CN1CCCC(CN2c3ccccc3Sc3ccccc32)C1 (stereo not shown),African green monkey cells,,,5 days,,CC50,11.8 µM
O=c1ccccc(C2CCCO2)c1O (stereo not shown),,,male CD-1 mice,"oral, micronucleus study",,maximum tolerated dose,1000 mg/kg
O=C(Nc1ccccc1)C1CCN(C(=O)Oc2cccnc2)CC1,,refers to: musculoskeletal disorders,healthy women,"oral, 60 mg, 7 days",,subjects with adverse event,7.1%
CC(C)C[C@H](NC(=O)[C@H](CCCCN)NC(=O)OCC1c2ccccc2-c2ccccc21)C(=O)N[C@H](C(=O)N[C@@H](Cc1ccccc1)C(=O)N[C@@H](Cc1ccccc1)C(=O)N[C@@H](CCCCN)C(=O)NCC(=O)N[C@@H](Cc1ccccc1)C(=O)N[C@@H](C)C(=O)N[C@@H](Cc1c[nH]c2ccccc12)C(=O)N[C@@H](CC(N)=O)C(=O)N[C@H](C(=O)N[C@H]1CSSC[C@@H](C(=O)N[C@@H](Cc2c[nH]cn2)C(=O)N[C@@H](CCCNC(=N)N)C(=O)N[C@@H](CCCNC(=N)N)C(=O)N[C@@H](C)C(=O)N[C@@H](CC(N)=O)C(N)=O)NC(=O)[C@H](C(C)C)NC(=O)[C@H](CCCNC(=N)N)NC(=O)[C@H](C(C)C)NC(=O)CNC(=O)[C@H](CC(N)=O)NC(=O)[C@H](CCCNC(=N)N)NC(=O)[C@H](Cc2ccc(O)cc2)NC(=O)[C@H](C(C)C)NC1=O)C(C)C)C(C)C,,,"ICR mouse, blood","intramammary, 5 mg/kg, day 5, 3 d dosing",,AST/ALT ratio,0.53 ± 0.04
CCc1ccc(CC/C=C/c2ccc3c(c2)C(=O)CC3)cc1,,,"Sprague-Dawley rat, female, blood","oral, 120 mg/kg/day, 14 days",,hematocrit,46.4%
CC[C@H](C)[C@H](NC(=O)[C@H](CCCNC(=N)N)NC(=O)[C@@H](NC(=O)[C@H](CCCNC(=N)N)NC(=O)[C@H](CO)NC(=O)[C@H](C)NC(=O)[C@@H](N)CC(N)=O)[C@@H](C)O)C(=O)N[C@H](C(=O)N[C@@H](Cc1ccccc1)C(=O)N[C@H](C(=O)O)C(C)C)[C@@H](C)O,SCRIB PDZ3 domain,"binding, fluorescence polarization",solution,Scribble PDZ3 domain,,Kd,24.1 µM
CO[C@H]1C[C@@H]2CC[C@@H](C)[C@@](O)(O2)C(=O)C(=O)N2CCCC[C@H]2C(=O)O[C@H]([C@H](C)C[C@@H]2CC[C@@H](OC(=O)NCCOCCOCCOCCOCCOCCOCCOCCOCCC(=O)N3CCc4cc(Cn5nc(-c6ccc7oc(N)nc7c6)c6c(N)ncnc65)ccc4C3)[C@H](OC)C2)C[C@@H](O)[C@H](C)/C=C(\C)[C@@H](O)[C@@H](OC)C(=O)[C@H](C)C[C@H](C)/C=C/C=C/C=C/1C,,phase 1 dose escalation,advanced solid tumour patients,"intravenous, 6 mg weekly, any grade",,deaths due to TRAEs,0%
CCCCCOc1ccc(-c2ccc(-c3ccc(C(=O)N[C@H]4C[C@@H](O)[C@@H](OCC[N+](C)(C)C)NC(=O)[C@@H]5[C@@H](O)[C@@H](C)CN5C(=O)[C@H]([C@@H](C)O)NC(=O)[C@H]([C@H](O)[C@@H](O)c5ccc(O)cc5)NC(=O)[C@@H]5C[C@@H](O)CN5C(=O)[C@H]([C@@H](C)O)NC4=O)cc3)cc2)cc1,,,"adult patients in ICU, plasma","intravenous, 400 mg loading, after first dose, median",,AUC(0-168 h),659 µg·h/mL
CN(C(=O)n1cnc(-c2ccc[n+]([O-])c2)c1)C1CCCCC1,,,"Wistar rat, cerebral cortex","oral, 10 mg/kg, 24 h, single dose",,concentration,10.4 ± 1.4 ng/g
CC(C)Nc1ccnc(Nc2cccc(-c3cccnc3)c2)n1,,refers to: Creatinine,"mouse, blood","intraperitoneal, 10 mg/kg",,blood chemistry,0.3 mg/dL
C=CC(=O)Nc1cc(Nc2nccc(Nc3cc(Cl)c(F)cc3C(C)(C)O)n2)c(OC)cc1N1CC[C@@H](N(C)C)C1,,,human,"oral, dose not given, phase I clinical",,patients with adverse event Vomiting,31.4%
CC[C@H](C)[C@H](NC(=O)[C@@H]1CCCN1C(=O)[C@H](Cc1c[nH]cn1)NC(=O)[C@@H](NC(=O)[C@@H](N)Cc1ccccc1)C(C)C)C(=O)N[C@@H](CC(C)C)C(=O)N[C@@H](CCC(N)=O)C(=O)N[C@@H](CO)C(=O)N[C@@H](C)C(=O)N[C@H](C(=O)O)C(C)C,SCRIB PDZ3 domain,"binding, fluorescence polarization",solution,Scribble PDZ3 domain,,Kd,9.8 µM
CC[C@H](C)[C@H](NC(=O)[C@H](Cc1ccccc1)NC(=O)[C@H](CCC(=O)O)NC(=O)[C@H](CCCNC(=N)N)NC(=O)[C@H](C)NC(=O)[C@H](C)NC(=O)[C@H](CCC(N)=O)NC(=O)[C@H](CCC(=O)O)NC(=O)[C@H](CCC(=O)O)NC(=O)[C@H](CC(C)C)NC(=O)[C@H](Cc1ccc(O)cc1)NC(=O)[C@H](CO)NC(=O)[C@H](CO)NC(=O)[C@@H](NC(=O)[C@H](CC(=O)O)NC(=O)[C@H](CO)NC(=O)[C@@H](NC(=O)[C@H](Cc1ccccc1)NC(=O)[C@@H](NC(=O)CNC(=O)[C@H](CCC(=O)O)NC(=O)[C@H](C)NC(=O)CCc1cnc[nH]1)[C@@H](C)O)[C@@H](C)O)C(C)C)C(=O)N[C@@H](C)C(=O)N[C@@H](Cc1c[nH]c2ccccc12)C(=O)N[C@@H](CC(C)C)C(=O)N[C@H](C(=O)N[C@@H](CCCNC(=N)N)C(=O)NCC(=O)N[C@@H](CCCNC(=N)N)C(=O)N[C@@H](CCCCNC(=O)COCCOCCNC(=O)COCCOCCNC(=O)CC[C@H](NC(=O)CCCCCCCCCCCCCCCCC(=O)O)C(=O)O)C(=O)NCC(=O)NCC(=O)N[C@@H](CO)C(=O)N[C@@H](CCSC)C(=O)N[C@H](C(=O)N[C@@H](CCCCNc1c(NCCCCCN(O)C(=O)CCC(=O)NCCCCCN(O)C(=O)CCC(=O)NCCCCCN(O)C(C)=O)c(=O)c1=O)C(=O)O)C(C)C)C(C)C [zirconium-89 labelled],,ex vivo gamma counting,"male Sprague-Dawley rats, muscle","intravenous, 1 nmol, 24 h, mean of 3 animals",,tissue uptake,0.072 %ID/g
O=c1ccc2cc3ccoc3cc2o1,,three freeze-thaw cycles,rat plasma,"8 ng/mL, -70 °C freeze",,accuracy,99.5%
COc1ccc(-c2c(-c3ccc(C#N)c(F)c3)nc(N3CCC(N)CC3)n(C)c2=O)cc1F,,refers to: ≥1 grade 3-4 TRAE,human patients,"oral, dose not given, dose escalation",,grade 3-4 TRAE incidence,22%
O=C(O)C[C@H](NC(=O)[C@H](CC(=O)O)NC(=O)[C@H](CC(=O)O)NC(=O)[C@H](CC(=O)O)NC(=O)[C@H](CC(=O)O)NC(=O)[C@H](CC(=O)O)NC(=O)[C@H](CC(=O)O)NC(=O)[C@H](CC(=O)O)NC(=O)[C@H](CC(=O)O)NC(=O)[C@H](CC(=O)O)NC(=O)[C@H](CC(=O)O)NC(=O)[C@H](CCCCNC(=O)c1ccc(C(=O)NCCOCCOB2BBBBBB3BBBB3B2)cc1)NC(=O)CN1CCN(CC(=O)O)CCN(CC(=O)O)CCN(CC(=O)O)CC1)C(=O)O [gallium-67 labelled],,gamma counting,"mouse, ddY, male, 6 weeks old, stomach","intravenous, 37 kBq, 1 h",,tissue uptake,0.43 %ID
COc1cc2c(Oc3ccc4[nH]c(C)cc4c3F)ccnc2cc1OCC1(N)CC1,,,paediatric refractory sarcoma patients,10 mg,,Triglyceride elevation incidence,50%
CN1CC[C@@H](c2c(O)cc(O)c3c(=O)cc(-c4ccc(C(F)(F)F)cc4Cl)oc23)[C@@H]1CO,,refers to: Dyspnea,B-cell malignancies or AML,"oral, 100 mg, continuous dosing",,patients with adverse event,12.5%
N[C@@H]1c2ccccc2OC12CCN(c1cnc3c(N4CCCc5ncccc54)n[nH]c3n1)CC2,,,advanced metastatic solid tumour patients,"oral, 40 mg once daily, cycle 1, 21 days",,dose-limiting toxicity,0%
C[C@]1(CO)Cc2ncn(-c3ccc(C#N)c(Cl)c3)c2C(=O)O1,,refers to: involuntary muscle contractions,human,10 mg single dose,,subjects with drug-related TEAE,0%
c1ccc2[nH]ccc2c1,,,,pH 7.4,,logD (chromatographic),4.14
COc1ncccc1-c1cnn2ccc(N3CCN(C(=O)OC(C)C)CC3)nc12,,,"mouse nerve ligation model, plasma","oral, 10 mg/kg, 120 min after last dose, repeat dosing day 4",,drug concentration,1900 nM
O=C(O)CCCOc1ccc(F)cc1-c1cc(-c2ccccc2C(F)(F)F)n(-c2ccccc2)n1,,,"Crl:CD(SD) rat, female","intravenous, 25 µg/kg, 1 days post-dose",baseline: body weight,relative pituitary weight,7.4 ± 0.8 mg%
O=C(c1cc(Cc2n[nH]c(=O)c3ccccc23)ccc1F)N1CCN(C(=O)C2CC2)CC1,,HPLC-MS/MS,"human patients, plasma","oral, 75 mg twice daily, MTD dose level, cycle 1 day 1, added: carboplatin target AUC 4",,AUC(0-12 h),16.3 µg·h/mL
CC(C)(C)c1cc(-n2nc3ccccc3n2)c(O)c(C(C)(C)C)c1,,exposure assessment,"human, age 21-60 years","concentration not given, spray sunscreen, 95th percentile",,"daily dermal uptake, percentile",16.5 ng/kg body weight/day
COc1cc(Nc2ncc(F)c(Nc3ccc4c(n3)NC(=O)C(C)(C)O4)n2)cc(OC)c1OC,"Chymotrypsin-like elastase family member 1 (CELA1, Sus scrofa, UniProt P00772)","enzyme activity, inhibitor",,,,IC50,> 10 µM
O=C(c1ccc(F)c(F)c1Nc1ccc(I)cc1F)N1CC(O)([C@@H]2CCCCN2)C1,,,patients aged sample A to sample B years,"oral, dose not given",,AE leading treatment withdrawal,29%

# Repeated from above:
SMILES,tested on,test,system,conditions,how to read,quantity,result
CCCCCOc1ccc(-c2ccc(-c3ccc(C(=O)N[C@H]4C[C@@H](O)[C@@H](OCC[N+](C)(C)C)NC(=O)[C@@H]5[C@@H](O)[C@@H](C)CN5C(=O)[C@H]([C@@H](C)O)NC(=O)[C@H]([C@H](O)[C@@H](O)c5ccc(O)cc5)NC(=O)[C@@H]5C[C@@H](O)CN5C(=O)[C@H]([C@@H](C)O)NC4=O)cc3)cc2)cc1,,,"adult patients in ICU, plasma","intravenous, 400 mg loading, after first dose, median",,AUC(0-168 h),659 µg·h/mL
CN(C(=O)n1cnc(-c2ccc[n+]([O-])c2)c1)C1CCCCC1,,,"Wistar rat, cerebral cortex","oral, 10 mg/kg, 24 h, single dose",,concentration,10.4 ± 1.4 ng/g
CC(C)Nc1ccnc(Nc2cccc(-c3cccnc3)c2)n1,,refers to: Creatinine,"mouse, blood","intraperitoneal, 10 mg/kg",,blood chemistry,0.3 mg/dL
C=CC(=O)Nc1cc(Nc2nccc(Nc3cc(Cl)c(F)cc3C(C)(C)O)n2)c(OC)cc1N1CC[C@@H](N(C)C)C1,,,human,"oral, dose not given, phase I clinical",,patients with adverse event Vomiting,31.4%
